Results from different studies.
Lines come from different studies, so protocols differ. Several values in a cell are separate wells, animals, samples, runs or records.
Tmem97: Sigma intracellular receptor 2 (Tmem97, Rattus norvegicus, UniProt Q5U3Y7)
Nos2: Nitric oxide synthase, inducible (Nos2, Mus musculus, UniProt P29477)

The selectivity ratio of `COC(=O)c1cc2cc3c(cc2oc1=O)N(CC(=O)NC(Cc1ccc(C)cc1)C(=O)NCC=CS(=O)(=O)c1ccccc1)CCC3` (stereo not shown) is reported as 2.9 (Cathepsin S (CTSS, Homo sapiens, UniProt P25774); enzyme activity, irreversible inhibitor; relative to: rhodesain kinact/Ki over cathepsin S kinact/Ki).
With `C/C(=N\OCCCN1CCOCC1)c1ccc(C(F)(F)F)cc1` the selectivity ratio was 366 fold (Tmem97; binding, [3H]-DTG radioligand binding; rat brain homogenate; relative to: Ki over sigma-1 Ki).
`C#CCOC(=O)[C@@]1(C)C=C(C(=O)Nc2cccc(C(=O)Nc3ccc(C)c(Nc4nccc(-c5cccnc5)n4)c3)c2)C(=O)CC1` gave a selectivity ratio of 10 fold (MAPK9 (Homo sapiens, UniProt P45984); relative to: JNK1 over MAPK9).
`O=C(c1ccc(SCCF)cc1)C1CCN(C2Cc3ccccc3CC2O)CC1` (single isomer, unassigned; (-)) has a selectivity ratio of ~13.6 fold and ~13 fold (SIGMAR1 (Cavia porcellus, UniProt Q60492); together with: (+)-[3H]pentazocine; relative to: SIGMAR1 Ki over VAChT Ki).
`Cc1cc(N)nc(C[C@@H]2CNC[C@@H]2OCCCCCc2cccc(N)n2)c1` gave a selectivity ratio of 619 (Nos2; enzyme activity, inhibitor; relative to: Ki Nos2 over Ki nNOS).
With `C/C(=N\OCCN(C)Cc1ccccc1)c1ccc(C(F)(F)F)cc1` the selectivity ratio was 306 fold (Tmem97; binding, [3H]-DTG radioligand binding; rat brain homogenate; relative to: Ki over sigma-1 Ki).
With `Cc1cc(N)nc(C[C@@H]2CNC[C@@H]2OCCCCCc2cccc(F)c2)c1` the selectivity ratio was 91 (Nos2; enzyme activity, inhibitor; relative to: Ki Nos2 over Ki nNOS).
With `COc1ccc(CCCN[C@@H]2CCC[C@H]2CN[C@@H]2CCC[C@H]2CNCCCCN[C@H]2CCC[C@@H]2CN)cc1` the selectivity ratio was 3.1 (KDM1B (Homo sapiens, UniProt Q8NB78); peroxidase-coupled; relative to: Ki for KDM1B over Ki for LSD1).
The selectivity ratio of `Cc1cc(O)c2c(c1)C(=O)c1cc(O)c(O)c(O)c1C2=O` is reported as 0.85 (MAOA (Homo sapiens, UniProt P21397); relative to: IC50 MAO-B over MAO-A).
`Cc1cc(N)nc(C[C@H]2CNC[C@H]2OCCC/C=C/c2cccc(F)c2)c1` gave a selectivity ratio of 9 (Nos2; enzyme activity, inhibitor; relative to: Ki Nos2 over Ki nNOS).
